Experimental data pooled from the literature.
Each numbered part is a random draw from the data of one study; scales do not carry over between parts.
UniProt Q02763, sequence (whole entry, looked up): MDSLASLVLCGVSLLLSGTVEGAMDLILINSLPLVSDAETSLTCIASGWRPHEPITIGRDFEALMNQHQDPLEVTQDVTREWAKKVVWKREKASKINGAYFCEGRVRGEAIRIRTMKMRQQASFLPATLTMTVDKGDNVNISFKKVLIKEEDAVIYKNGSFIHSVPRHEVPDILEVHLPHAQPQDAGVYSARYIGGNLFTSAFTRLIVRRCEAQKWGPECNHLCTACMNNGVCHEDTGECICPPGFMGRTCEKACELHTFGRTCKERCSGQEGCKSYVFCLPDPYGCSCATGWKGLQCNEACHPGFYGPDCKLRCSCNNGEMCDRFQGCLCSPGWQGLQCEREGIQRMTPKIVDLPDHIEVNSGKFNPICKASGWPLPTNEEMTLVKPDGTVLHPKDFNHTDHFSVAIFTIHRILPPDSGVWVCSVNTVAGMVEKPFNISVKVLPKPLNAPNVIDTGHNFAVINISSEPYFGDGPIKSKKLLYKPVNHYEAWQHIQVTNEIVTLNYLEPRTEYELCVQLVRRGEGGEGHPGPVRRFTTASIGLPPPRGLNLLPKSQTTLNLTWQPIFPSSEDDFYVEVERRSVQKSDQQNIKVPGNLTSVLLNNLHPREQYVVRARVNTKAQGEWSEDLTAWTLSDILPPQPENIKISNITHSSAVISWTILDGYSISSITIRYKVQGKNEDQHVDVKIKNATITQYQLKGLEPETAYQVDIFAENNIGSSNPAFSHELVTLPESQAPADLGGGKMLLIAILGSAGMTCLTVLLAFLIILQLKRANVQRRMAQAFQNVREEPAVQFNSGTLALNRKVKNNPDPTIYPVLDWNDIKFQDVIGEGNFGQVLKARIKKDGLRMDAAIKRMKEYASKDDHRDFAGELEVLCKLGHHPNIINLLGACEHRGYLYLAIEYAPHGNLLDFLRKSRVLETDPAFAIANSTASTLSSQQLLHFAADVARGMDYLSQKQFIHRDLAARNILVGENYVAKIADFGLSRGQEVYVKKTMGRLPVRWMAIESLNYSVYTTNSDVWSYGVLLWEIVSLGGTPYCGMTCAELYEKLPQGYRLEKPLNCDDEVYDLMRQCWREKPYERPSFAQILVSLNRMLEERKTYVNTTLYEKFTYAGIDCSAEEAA
UniProt P68400, sequence (whole entry, looked up): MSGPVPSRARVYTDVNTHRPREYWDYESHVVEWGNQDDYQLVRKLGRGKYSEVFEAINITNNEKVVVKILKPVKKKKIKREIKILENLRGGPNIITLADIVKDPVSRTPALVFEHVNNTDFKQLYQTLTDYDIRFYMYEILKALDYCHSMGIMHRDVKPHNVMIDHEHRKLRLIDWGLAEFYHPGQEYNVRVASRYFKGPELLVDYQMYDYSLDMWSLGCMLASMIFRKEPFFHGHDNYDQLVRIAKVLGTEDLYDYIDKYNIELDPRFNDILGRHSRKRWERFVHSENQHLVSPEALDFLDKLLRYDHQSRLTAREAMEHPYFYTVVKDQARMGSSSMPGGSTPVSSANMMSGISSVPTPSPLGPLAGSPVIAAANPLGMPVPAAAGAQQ
UniProt P42336, sequence (whole entry, unmodified, looked up): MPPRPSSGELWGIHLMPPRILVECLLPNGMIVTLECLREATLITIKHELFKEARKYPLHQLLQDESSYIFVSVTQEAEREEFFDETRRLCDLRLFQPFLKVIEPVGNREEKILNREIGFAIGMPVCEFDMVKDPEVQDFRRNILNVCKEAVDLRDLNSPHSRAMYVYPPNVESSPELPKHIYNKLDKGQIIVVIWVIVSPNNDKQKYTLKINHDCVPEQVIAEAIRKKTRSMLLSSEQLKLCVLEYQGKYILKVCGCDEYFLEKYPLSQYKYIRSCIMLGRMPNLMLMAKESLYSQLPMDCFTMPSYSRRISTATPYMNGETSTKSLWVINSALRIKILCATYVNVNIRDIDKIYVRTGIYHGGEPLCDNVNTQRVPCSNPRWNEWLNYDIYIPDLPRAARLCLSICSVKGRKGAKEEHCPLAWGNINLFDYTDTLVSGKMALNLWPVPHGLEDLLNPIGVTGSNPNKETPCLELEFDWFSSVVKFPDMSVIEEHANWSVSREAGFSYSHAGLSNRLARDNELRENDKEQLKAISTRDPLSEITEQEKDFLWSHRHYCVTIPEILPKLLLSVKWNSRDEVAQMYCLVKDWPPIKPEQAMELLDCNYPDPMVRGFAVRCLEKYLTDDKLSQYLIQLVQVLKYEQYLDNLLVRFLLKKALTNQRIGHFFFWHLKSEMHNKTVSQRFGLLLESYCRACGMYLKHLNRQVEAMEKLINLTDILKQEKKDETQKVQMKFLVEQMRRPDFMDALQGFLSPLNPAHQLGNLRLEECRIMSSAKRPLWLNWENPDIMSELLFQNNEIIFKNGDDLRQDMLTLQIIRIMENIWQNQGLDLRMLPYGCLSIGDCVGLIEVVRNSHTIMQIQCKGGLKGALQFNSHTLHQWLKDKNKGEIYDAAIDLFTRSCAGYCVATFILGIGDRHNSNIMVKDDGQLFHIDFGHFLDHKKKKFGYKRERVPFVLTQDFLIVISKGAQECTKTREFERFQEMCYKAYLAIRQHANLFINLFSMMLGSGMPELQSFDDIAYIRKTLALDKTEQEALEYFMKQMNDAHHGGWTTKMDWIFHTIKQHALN
UniProt P53778, sequence (whole entry, looked up): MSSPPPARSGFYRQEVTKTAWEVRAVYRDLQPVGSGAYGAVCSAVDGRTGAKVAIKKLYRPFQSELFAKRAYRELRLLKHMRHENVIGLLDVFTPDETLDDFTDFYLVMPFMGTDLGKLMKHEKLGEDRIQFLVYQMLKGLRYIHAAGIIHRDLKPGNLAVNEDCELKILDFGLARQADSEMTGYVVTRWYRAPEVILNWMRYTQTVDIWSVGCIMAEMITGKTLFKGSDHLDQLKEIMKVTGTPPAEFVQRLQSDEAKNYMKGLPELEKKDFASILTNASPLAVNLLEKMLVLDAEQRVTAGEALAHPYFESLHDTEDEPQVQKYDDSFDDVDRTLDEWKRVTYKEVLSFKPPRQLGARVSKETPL
UniProt Q9BQI3, sequence (whole entry, looked up): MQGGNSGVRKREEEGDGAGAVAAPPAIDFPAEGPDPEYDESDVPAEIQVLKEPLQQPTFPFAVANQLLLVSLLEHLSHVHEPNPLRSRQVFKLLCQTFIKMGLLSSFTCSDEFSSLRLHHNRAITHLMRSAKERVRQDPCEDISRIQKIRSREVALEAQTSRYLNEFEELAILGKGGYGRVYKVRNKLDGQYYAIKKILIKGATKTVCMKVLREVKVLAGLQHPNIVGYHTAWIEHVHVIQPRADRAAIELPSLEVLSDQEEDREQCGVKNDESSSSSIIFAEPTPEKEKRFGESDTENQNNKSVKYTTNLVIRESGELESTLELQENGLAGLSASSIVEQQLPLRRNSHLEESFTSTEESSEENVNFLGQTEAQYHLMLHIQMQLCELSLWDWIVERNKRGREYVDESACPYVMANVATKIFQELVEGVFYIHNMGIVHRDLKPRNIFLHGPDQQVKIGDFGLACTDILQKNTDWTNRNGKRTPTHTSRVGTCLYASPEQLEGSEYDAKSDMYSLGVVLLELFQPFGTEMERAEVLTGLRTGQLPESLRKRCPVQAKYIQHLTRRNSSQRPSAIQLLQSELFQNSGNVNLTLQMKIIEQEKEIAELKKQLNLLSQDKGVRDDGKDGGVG
UniProt Q8TDR2, sequence (whole entry, looked up): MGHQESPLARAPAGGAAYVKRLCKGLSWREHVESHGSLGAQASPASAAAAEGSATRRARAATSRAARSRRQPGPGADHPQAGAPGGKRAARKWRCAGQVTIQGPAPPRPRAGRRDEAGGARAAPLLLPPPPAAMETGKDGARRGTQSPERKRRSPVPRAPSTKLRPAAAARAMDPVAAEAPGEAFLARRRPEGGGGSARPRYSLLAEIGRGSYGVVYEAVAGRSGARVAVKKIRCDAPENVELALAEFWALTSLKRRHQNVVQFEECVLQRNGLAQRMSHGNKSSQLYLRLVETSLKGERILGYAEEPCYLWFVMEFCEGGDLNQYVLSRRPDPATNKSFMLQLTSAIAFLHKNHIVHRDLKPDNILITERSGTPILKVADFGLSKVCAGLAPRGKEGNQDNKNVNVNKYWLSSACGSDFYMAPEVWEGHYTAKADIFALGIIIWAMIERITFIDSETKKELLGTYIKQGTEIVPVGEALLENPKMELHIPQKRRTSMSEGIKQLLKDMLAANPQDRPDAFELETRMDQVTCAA

Series 1 — observed: cell-free assay; method: competition with immobilised ligand; tested at: 0.1 µM; endpoint: remaining binding
SMILES: Cn1nc(C(=O)NCc2ccc(C(=O)O)cc2)cc1-c1ccc2[nH]ccc2c1
Ribosomal protein S6 kinase alpha-4, C-terminal kinase domain (RPS6KA4, Homo sapiens, UniProt O75676): 81%
Serine/threonine-protein kinase OSR1 (OXSR1, Homo sapiens, UniProt O95747): 88%
Serine/threonine-protein kinase N1 (PKN1, Homo sapiens, UniProt Q16512): 90%
Eukaryotic translation initiation factor 2-alpha kinase 1 (EIF2AK1, Homo sapiens, UniProt Q9BQI3): 90%
Cyclin-dependent kinase 3 (CDK3, Homo sapiens, UniProt Q00526): 88%
Receptor-type tyrosine-protein kinase FLT3 (FLT3, Homo sapiens, UniProt P36888, K663Q): 86%
Tyrosine-protein kinase ABL1, phosphorylated (ABL1, Homo sapiens, UniProt P00519, H396P): 84%
Tyrosine-protein kinase receptor UFO (AXL, Homo sapiens, UniProt P30530): 89%
Hepatocyte growth factor receptor (MET, Homo sapiens, UniProt P08581, Y1235D): 100%
Serine/threonine-protein kinase 35 (STK35, Homo sapiens, UniProt Q8TDR2): 94%
Mitogen-activated protein kinase kinase kinase kinase 4 (MAP4K4, Homo sapiens, UniProt O95819): 92%
Mitogen-activated protein kinase 12 (MAPK12, Homo sapiens, UniProt P53778): 90%
Mitogen-activated protein kinase kinase kinase 15 (MAP3K15, Homo sapiens, UniProt Q6ZN16): 91%
Hepatocyte growth factor receptor (MET, Homo sapiens, UniProt P08581): 100%
Cyclin-dependent kinase-like 5 (CDKL5, Homo sapiens, UniProt O76039): 85%
Muscle, skeletal receptor tyrosine-protein kinase (MUSK, Homo sapiens, UniProt O15146): 95%
Casein kinase II subunit alpha (CSNK2A1, Homo sapiens, UniProt P68400): 68%
Insulin receptor-related protein (INSRR, Homo sapiens, UniProt P14616): 98%
Tyrosine-protein kinase ABL1, phosphorylated (ABL1, Homo sapiens, UniProt P00519, T315I): 71%
Phosphatidylinositol 4,5-bisphosphate 3-kinase catalytic subunit alpha isoform (PIK3CA, Homo sapiens, UniProt P42336, E545K): 87%
Angiopoietin-1 receptor (TEK, Homo sapiens, UniProt Q02763): 82%
Rhodopsin kinase GRK7 (GRK7, Homo sapiens, UniProt Q8WTQ7): 100%
Activated CDC42 kinase 1 (TNK2, Homo sapiens, UniProt Q07912): 100%
Mast/stem cell growth factor receptor Kit (KIT, Homo sapiens, UniProt P10721, D816V): 91%
Phosphatidylinositol 4,5-bisphosphate 3-kinase catalytic subunit gamma isoform (PIK3CG, Homo sapiens, UniProt P48736): 64%

Series 2 — observed: enzyme activity; mode: inhibitor; tested at: 0.5 µM; baseline: control; endpoint: remaining activity
Target: Tyrosine-protein kinase Fes/Fps (FES, Homo sapiens, UniProt P07332)
UniProt P07332, sequence (whole entry, looked up): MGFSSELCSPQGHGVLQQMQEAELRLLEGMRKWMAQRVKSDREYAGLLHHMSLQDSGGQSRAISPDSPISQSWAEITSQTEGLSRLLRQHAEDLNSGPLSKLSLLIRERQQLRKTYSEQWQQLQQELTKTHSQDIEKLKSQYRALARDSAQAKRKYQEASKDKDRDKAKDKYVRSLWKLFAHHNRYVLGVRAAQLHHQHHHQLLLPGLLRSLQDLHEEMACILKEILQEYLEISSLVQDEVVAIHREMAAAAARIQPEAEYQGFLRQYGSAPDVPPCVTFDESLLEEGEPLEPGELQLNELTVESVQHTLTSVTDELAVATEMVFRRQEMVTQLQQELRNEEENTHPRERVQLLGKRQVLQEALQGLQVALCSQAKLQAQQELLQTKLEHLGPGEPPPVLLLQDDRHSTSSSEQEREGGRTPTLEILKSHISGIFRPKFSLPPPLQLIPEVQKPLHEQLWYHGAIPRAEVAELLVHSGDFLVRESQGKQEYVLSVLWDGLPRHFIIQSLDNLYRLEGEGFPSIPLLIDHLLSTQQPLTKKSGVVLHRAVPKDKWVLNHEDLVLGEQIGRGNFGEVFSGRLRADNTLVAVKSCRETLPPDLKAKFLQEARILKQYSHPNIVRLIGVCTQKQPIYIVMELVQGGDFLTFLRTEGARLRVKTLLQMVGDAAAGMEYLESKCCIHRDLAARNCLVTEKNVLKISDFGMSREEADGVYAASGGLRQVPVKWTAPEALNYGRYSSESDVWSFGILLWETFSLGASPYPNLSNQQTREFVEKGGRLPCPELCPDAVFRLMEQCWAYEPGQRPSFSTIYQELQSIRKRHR
O=C1Nc2ccccc2/C1=C\c1c(Cl)[nH]c2ccccc12: 96.6%
O=C1Nc2ccc(Br)cc2/C1=C/c1cc2c([nH]1)CCCC2: 83.8%
COc1ccc2c(c1)c(C1=C(c3c[nH]c4ccccc34)C(=O)NC1=O)cn2CCCN(C)C: 120%
c1ccc2c(-c3ccncc3)c[nH]c2c1: 105%
O=c1cc(N2CCOCC2)oc2c(-c3ccccc3)cccc12: 96.6%
c1ccc(-c2n[nH]c3c2oc2ccccc23)cc1: 114%
CN1CCN(c2ccc3nc(-c4c(N)c5c(F)cccc5[nH]c4=O)[nH]c3c2)CC1: 91.9%
CCCNC(=O)Nc1ccc(Oc2ncnc3cc(OC)c(OC)cc23)cc1Cl: 96%
CN(C)S(=O)(=O)c1ccc2c(c1)/C(=C/c1cc3c([nH]1)CCCC3)C(=O)N2: 76.9%
CCCCc1c(-c2ccc(OC)cc2)[nH]c2nccnc12: 66%
Cc1ccc(S(=O)(=O)/C=C/C#N)cc1: 100%
O=Nc1c(-c2c(O)[nH]c3cc(Br)ccc23)[nH]c2ccccc12: 96%
O=C1NC(=O)c2c1c1c3ccccc3[nH]c1n1cncc21: 117%
N#Cc1cnc2cnc(NCc3cccnc3)cc2c1Nc1ccc(F)c(Cl)c1: 108%
COc1cccc(-c2cc(=O)c3ccccc3o2)c1N: 94.3%
O=C1NC(=O)c2c1c1c3ccccc3[nH]c1c1[nH]c3cc(Br)ccc3c21: 88.1%
Oc1cccc(-c2nc(N3CCOCC3)c3oc4ncccc4c3n2)c1: 98.8%
O=C(c1cc2cc(O)ccc2[nH]1)c1cc2cc(O)ccc2[nH]1: 95.3%
O=C1Cc2c([nH]c3ccc(Br)cc23)-c2ccccc2N1: 87.8%

Series 3 — method: exponential regression of PRP log k'; medium: 1,9-decadiene/PBS; pH: 7.4; endpoint: logD (1,9-decadiene/water)
CCCC(=O)NCCCCCC(=O)N[C@H](C(=O)N1C[C@H](O)C[C@H]1C(=O)NCc1ccc(-c2scnc2C)cc1)C(C)(C)C: -4.26
CCCC(=O)OCCCCCC(=O)N[C@H](C(=O)N1C[C@H](O)C[C@H]1C(=O)NCc1ccc(-c2scnc2C)cc1)C(C)(C)C: -1.39
COCC(=O)NCCCCCC(=O)N[C@H](C(=O)N1C[C@H](O)C[C@H]1C(=O)NCc1ccc(-c2scnc2C)cc1)C(C)(C)C: -5.03
CCCN1CC(=O)N[C@@H](CC2CCCCC2)C(=O)N(C)[C@@H](C)C(=O)N[C@@H](CC(C)C)C(=O)N(C)[C@H](C(=O)OCC)CSCC(=O)N[C@@H](CC(C)C)C(=O)N(C)[C@@H](C)C(=O)N[C@@H](CC(C)C)C(=O)N2CCC[C@@H]2C1=O: 3.2
Cc1ncsc1-c1ccc(CNC(=O)[C@@H]2C[C@@H](O)CN2C(=O)[C@@H](NC(=O)CCCCCNC(=O)C2CCCCC2)C(C)(C)C)cc1: -2.52
COCC(=O)OCCCCCC(=O)N[C@H](C(=O)N1C[C@H](O)C[C@H]1C(=O)NCc1ccc(-c2scnc2C)cc1)C(C)(C)C: -3.31
CCOC(=O)[C@@H]1CSCC(=O)N[C@@H](CC(C)C)C(=O)N(C)[C@@H](C)C(=O)N[C@@H](CC(C)C)C(=O)N2CCC[C@@H]2C(=O)N(CC)CC(=O)N[C@@H](CC2CCCCC2)C(=O)N(C)[C@@H](C)C(=O)N[C@@H](CC(C)C)C(=O)N1C: 2.98

Series 4 — organism: Sarcocystis neurona; observed: parasite growth; tested at: 10 µM; time: 96 h; setting: second screen; baseline: untreated; endpoint: log2 fold change
C[C@@](Cc1ccc(O)c(O)c1)(NN)C(=O)O: 0.42
O=C(O)COCCN1CCN(C(c2ccccc2)c2ccc(Cl)cc2)CC1 (centres unmarked): 0.08
C[N+]1(C)CCC(OC(=O)C(O)(c2ccccc2)C2CCCC2)C1 (centres unmarked): 0.62
C[C@@H]1C[C@H]2[C@@H]3CCC4=CC(=O)C=C[C@]4(C)[C@@]3(F)[C@@H](O)C[C@]2(C)[C@H]1C(=O)CO: -0.04
CN1CCN(C2=Nc3cc(Cl)ccc3Nc3ccccc32)CC1: 0.57
O=C1CCC(N2C(=O)c3ccccc3C2=O)C(=O)N1 (centres unmarked): 0.21
CCOC(=O)CCC(=O)O[C@H]1[C@H](O[C@@H]2[C@@H](C)[C@H](O[C@H]3C[C@@](C)(OC)[C@@H](O)[C@H](C)O3)[C@@H](C)C(=O)O[C@H](CC)[C@@](C)(O)[C@H](O)[C@@H](C)C(=O)[C@H](C)C[C@@]2(C)O)O[C@H](C)C[C@@H]1N(C)C: -0.32
CC(C)(C)NC[C@H](O)COc1nsnc1N1CCOCC1: 0.5
C=C1/C(=C\C=C2/CCC[C@]3(C)[C@@H]([C@H](C)/C=C/[C@@H](O)C4CC4)CC[C@@H]23)C[C@@H](O)C[C@@H]1O: 0.36
CN(C)C(=O)C(CCN1CCC(O)(c2ccc(Cl)cc2)CC1)(c1ccccc1)c1ccccc1: -0.46
CN(C)CCOC(c1ccccc1)c1ccccc1: 0.68
O=C(O)Cc1ccccc1Nc1c(Cl)cccc1Cl: 0.08
CCC(=O)NS(=O)(=O)c1ccc(-c2c(-c3ccccc3)noc2C)cc1: 0.18
CCN(CC)CC(=O)Nc1c(C)cccc1C: 0.6
CS(=O)(=O)c1ccc(-c2cc(Br)sc2-c2ccc(F)cc2)cc1: -0.06
COc1ccccc1N1CCN(CC(O)COc2cccc3ccccc23)CC1 (centres unmarked): 0.45
CCC(=O)O[C@]1(C(=O)SCF)[C@H](C)C[C@H]2[C@@H]3C[C@H](F)C4=CC(=O)C=C[C@]4(C)[C@@]3(F)[C@@H](O)C[C@@]21C: 0.29
O=C1CN2Cc3c(ccc(Cl)c3Cl)N=C2N1: 0.28
CN(CCOc1ccc(CC2SC(=O)NC2=O)cc1)c1ccccn1 (centres unmarked): -0.13
CCOC(=O)[C@H](CCc1ccccc1)N[C@@H](C)C(=O)N1CCC[C@H]1C(=O)O: 0.11

A few entries again (series 2):
O=C1Nc2ccc(Br)cc2/C1=C/c1cc2c([nH]1)CCCC2: 83.8%
Oc1cccc(-c2nc(N3CCOCC3)c3oc4ncccc4c3n2)c1: 98.8%
O=C1NC(=O)c2c1c1c3ccccc3[nH]c1n1cncc21: 117%
O=C1NC(=O)c2c1c1c3ccccc3[nH]c1c1[nH]c3cc(Br)ccc3c21: 88.1%
N#Cc1cnc2cnc(NCc3cccnc3)cc2c1Nc1ccc(F)c(Cl)c1: 108%
